{"data": "Assay results from different studies", "note": "A part holds a random share of what one study measured."}
{"data": "Set 1", "target": "Prothrombin, mature alpha-thrombin (F2, Homo sapiens, UniProt P00734)", "method": "aptamer microarray, sandwich", "form": "DNA with 2'F-ANA", "medium": "in vitro", "concentration": "200 nM", "setting": "whole 15-mer aptamer, many near background", "together with": "Cy3 exosite-II aptamer, 400 nM", "reading": "higher = stronger binding", "sequence": "GGTTGGTGTGGTTGG"}
{"Modification": "2'F-ANA at 1 2 3 7 8 10 11 12 14 15", "mean fluorescence intensity [a.u.]": 61.2}
{"Modification": "2'F-ANA at 2 3 4 5 6 7 8 11 12 15", "mean fluorescence intensity [a.u.]": 139}
{"Modification": "2'F-ANA at 1 6 11 13 14", "mean fluorescence intensity [a.u.]": 52.6}
{"Modification": "2'F-ANA at 3 4 5 7 9 10 11 12 13 14 15", "mean fluorescence intensity [a.u.]": 53.3}
{"Modification": "2'F-ANA at 1 2 5 9 10 11", "mean fluorescence intensity [a.u.]": 49.5}
{"Modification": "2'F-ANA at 1 4 6 10 14", "mean fluorescence intensity [a.u.]": 43.6}
{"Modification": "2'F-ANA at 1 2 3 6 8 15", "mean fluorescence intensity [a.u.]": 253}
{"data": "Set 2", "target": "Interferon regulatory factor 7, full length, phosphomimetic (IRF7, Homo sapiens, UniProt Q92985, residues 1-503, S101K/S471D/S472D/S475D/S476D/S477D/S483D/S484D/S487D)", "method": "protein-binding microarray", "form": "double-stranded DNA, one strand shown", "medium": "in vitro", "concentration": "250 nM", "setting": "60-bp whole probe", "together with": "salmon DNA 0.4 mg/ml", "reference": "random background probes", "reading": "higher = stronger binding", "Residues (chain)": "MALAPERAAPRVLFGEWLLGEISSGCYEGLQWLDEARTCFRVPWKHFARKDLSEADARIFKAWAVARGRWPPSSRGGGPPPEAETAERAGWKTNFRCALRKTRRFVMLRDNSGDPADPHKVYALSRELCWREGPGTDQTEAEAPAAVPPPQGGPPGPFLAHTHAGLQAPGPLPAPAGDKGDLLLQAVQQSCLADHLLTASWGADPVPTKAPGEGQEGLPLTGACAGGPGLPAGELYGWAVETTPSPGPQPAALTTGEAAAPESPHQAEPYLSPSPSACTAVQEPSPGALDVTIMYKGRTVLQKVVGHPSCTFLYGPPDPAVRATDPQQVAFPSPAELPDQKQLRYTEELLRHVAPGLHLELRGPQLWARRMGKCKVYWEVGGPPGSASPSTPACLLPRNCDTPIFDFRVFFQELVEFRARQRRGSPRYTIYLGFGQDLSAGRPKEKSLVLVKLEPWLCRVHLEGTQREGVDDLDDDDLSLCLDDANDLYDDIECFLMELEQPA"}
{"Sequence": "GCCTAGCACGACGGTTTCGGTATCGCGACGTGCTAGGTCTTGATTCGCTTGACGCTGCTG", "log fluorescence": "10.9 z-score"}
{"Sequence": "GCCTAGCACTTAGGTATCGGGTTTCGGTTAGTGCTAGTCTTGATTCGCTTGACGCTGCTG", "log fluorescence": "7.39 z-score"}
{"Sequence": "GCCTAGCACGACGGACTGGACTTTCCGGACGTGCTAGTCTTGATTCGCTTGACGCTGCTG", "log fluorescence": "-0.598 z-score"}
{"Sequence": "GCCTAGCACTCAGCTACACATCTCACACTGTGCTAGGTCTTGATTCGCTTGACGCTGCTG", "log fluorescence": "-0.129 z-score"}
{"data": "Set 3", "target": "Histone acetyltransferase KAT6A, both winged helices, GST fusion (KAT6A, Homo sapiens, UniProt Q92794, residues 1-181)", "method": "protein binding microarray", "form": "double-stranded DNA, one strand shown", "medium": "in vitro", "concentration": "not given", "setting": "8-mer, flanks averaged, mean of 2 arrays, mostly near background", "reference": "not given", "reading": "higher = stronger binding", "Target sequence (chain)": "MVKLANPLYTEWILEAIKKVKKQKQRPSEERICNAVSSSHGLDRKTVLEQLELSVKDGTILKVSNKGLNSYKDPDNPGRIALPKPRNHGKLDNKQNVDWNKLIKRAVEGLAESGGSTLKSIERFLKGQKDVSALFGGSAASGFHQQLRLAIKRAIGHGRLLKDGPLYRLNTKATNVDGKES"}
{"Sequence": "GATAACCC", "E-score": -0.0772}
{"Sequence": "CGGGTCAA", "E-score": 0.173}
{"Sequence": "ATTCCTGC", "E-score": 0.00211}
{"Sequence": "ACGAGCCT", "E-score": -0.0244}
{"Sequence": "GCTATGGA", "E-score": -0.117}
{"Sequence": "TCCGGGAA", "E-score": 0.146}
{"data": "Mixed results"}
{"Molecule": "PhoQ, residues 284 288 289 292 302 303 NLGVHL", "target": "PhoP, residues 12 14 15 18 19 HLGGL (Escherichia coli, UniProt P23836)", "test": "Sort-seq, refers to: YFP reporter", "test system": "E. coli", "setting": "PhoQ-PhoP variant library, together with: 10 µM Mg2+", "how to read": "reference: high Mg2+ state, higher = stronger signaling", "measurement": "fold induction", "result": 10.1}
{"note": "Excerpt of the above (set 3):"}
{"Sequence": "TCCGGGAA", "E-score": 0.146}
{"Sequence": "GCTATGGA", "E-score": -0.117}
